Measurements collected from several papers.
Compare with care: the assays were run in different laboratories. ± marks the error that the study gave.
UniProt Q8N8S7, sequence (whole entry, looked up): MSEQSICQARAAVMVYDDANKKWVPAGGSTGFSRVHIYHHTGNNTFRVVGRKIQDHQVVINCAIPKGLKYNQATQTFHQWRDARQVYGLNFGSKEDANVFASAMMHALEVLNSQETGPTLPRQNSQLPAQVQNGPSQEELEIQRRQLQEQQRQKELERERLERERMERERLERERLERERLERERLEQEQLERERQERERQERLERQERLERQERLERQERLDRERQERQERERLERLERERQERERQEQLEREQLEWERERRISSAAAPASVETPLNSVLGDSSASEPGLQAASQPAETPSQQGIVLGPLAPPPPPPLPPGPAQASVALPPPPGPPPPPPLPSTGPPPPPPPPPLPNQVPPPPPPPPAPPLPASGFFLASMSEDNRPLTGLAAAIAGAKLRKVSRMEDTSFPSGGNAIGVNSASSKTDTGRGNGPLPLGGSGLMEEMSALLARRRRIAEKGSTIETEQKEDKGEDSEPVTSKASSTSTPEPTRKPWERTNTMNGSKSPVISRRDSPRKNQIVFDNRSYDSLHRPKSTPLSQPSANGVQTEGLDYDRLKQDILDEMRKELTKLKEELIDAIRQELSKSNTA
UniProt P07814, sequence (whole entry, looked up): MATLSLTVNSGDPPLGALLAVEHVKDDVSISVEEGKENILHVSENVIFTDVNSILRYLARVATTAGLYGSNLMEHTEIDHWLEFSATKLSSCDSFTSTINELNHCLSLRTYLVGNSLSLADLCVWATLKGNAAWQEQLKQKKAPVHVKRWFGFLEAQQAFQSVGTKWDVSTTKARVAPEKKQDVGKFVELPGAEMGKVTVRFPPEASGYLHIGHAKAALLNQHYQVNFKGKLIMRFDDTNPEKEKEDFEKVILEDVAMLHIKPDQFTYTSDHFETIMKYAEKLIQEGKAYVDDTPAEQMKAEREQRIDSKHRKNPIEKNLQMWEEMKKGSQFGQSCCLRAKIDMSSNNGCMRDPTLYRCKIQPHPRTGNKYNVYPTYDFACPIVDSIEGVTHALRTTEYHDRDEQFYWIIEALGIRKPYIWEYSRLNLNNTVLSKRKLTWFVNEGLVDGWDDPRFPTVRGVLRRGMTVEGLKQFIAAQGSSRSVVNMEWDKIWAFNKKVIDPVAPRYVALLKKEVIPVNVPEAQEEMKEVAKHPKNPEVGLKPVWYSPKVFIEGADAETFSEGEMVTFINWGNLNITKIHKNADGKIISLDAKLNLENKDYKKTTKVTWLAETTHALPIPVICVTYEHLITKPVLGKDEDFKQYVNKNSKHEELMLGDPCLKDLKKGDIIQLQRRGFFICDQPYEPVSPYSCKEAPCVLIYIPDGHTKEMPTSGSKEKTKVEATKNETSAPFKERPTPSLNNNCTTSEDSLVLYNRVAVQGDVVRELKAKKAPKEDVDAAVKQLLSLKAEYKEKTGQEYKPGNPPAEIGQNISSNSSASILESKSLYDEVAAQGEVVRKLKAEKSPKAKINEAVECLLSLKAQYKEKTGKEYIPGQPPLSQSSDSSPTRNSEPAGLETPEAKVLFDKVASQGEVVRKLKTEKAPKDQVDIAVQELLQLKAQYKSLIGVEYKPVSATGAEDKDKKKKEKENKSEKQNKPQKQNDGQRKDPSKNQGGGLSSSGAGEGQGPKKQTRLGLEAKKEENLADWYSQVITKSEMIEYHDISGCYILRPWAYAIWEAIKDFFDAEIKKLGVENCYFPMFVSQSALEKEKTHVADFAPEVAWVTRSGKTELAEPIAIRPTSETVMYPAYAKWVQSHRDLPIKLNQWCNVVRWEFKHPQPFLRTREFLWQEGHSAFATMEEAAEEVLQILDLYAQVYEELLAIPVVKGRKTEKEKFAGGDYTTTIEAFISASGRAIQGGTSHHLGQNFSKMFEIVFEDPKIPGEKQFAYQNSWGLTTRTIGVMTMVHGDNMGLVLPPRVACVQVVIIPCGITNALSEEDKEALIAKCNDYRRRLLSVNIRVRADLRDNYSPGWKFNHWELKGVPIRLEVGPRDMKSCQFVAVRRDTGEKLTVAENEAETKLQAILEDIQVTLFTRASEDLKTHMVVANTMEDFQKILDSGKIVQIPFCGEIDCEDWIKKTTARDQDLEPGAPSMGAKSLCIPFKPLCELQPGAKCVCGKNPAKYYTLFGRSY
UniProt P41143, sequence (whole entry, unmodified, looked up): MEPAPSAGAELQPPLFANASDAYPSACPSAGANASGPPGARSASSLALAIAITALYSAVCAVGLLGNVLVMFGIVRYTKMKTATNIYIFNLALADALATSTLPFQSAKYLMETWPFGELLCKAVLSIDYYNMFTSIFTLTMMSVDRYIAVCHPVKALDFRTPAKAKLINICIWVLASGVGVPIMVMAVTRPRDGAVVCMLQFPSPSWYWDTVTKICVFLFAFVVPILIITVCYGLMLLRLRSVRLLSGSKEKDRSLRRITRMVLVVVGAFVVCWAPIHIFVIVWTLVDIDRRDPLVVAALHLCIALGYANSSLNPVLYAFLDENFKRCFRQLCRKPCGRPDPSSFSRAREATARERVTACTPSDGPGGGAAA
UniProt P51817, sequence (whole entry, looked up): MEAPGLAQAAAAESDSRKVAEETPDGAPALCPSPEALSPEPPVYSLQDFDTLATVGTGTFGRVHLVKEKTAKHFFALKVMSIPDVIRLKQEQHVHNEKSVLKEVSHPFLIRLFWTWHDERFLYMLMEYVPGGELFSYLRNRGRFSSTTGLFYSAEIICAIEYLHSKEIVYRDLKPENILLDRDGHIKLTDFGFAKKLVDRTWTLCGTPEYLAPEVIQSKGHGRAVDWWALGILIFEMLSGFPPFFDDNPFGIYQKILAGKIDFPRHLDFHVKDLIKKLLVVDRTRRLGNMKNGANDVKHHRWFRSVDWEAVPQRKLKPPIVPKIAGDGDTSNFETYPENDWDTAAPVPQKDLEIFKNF
UniProt P55072, sequence (whole entry, looked up): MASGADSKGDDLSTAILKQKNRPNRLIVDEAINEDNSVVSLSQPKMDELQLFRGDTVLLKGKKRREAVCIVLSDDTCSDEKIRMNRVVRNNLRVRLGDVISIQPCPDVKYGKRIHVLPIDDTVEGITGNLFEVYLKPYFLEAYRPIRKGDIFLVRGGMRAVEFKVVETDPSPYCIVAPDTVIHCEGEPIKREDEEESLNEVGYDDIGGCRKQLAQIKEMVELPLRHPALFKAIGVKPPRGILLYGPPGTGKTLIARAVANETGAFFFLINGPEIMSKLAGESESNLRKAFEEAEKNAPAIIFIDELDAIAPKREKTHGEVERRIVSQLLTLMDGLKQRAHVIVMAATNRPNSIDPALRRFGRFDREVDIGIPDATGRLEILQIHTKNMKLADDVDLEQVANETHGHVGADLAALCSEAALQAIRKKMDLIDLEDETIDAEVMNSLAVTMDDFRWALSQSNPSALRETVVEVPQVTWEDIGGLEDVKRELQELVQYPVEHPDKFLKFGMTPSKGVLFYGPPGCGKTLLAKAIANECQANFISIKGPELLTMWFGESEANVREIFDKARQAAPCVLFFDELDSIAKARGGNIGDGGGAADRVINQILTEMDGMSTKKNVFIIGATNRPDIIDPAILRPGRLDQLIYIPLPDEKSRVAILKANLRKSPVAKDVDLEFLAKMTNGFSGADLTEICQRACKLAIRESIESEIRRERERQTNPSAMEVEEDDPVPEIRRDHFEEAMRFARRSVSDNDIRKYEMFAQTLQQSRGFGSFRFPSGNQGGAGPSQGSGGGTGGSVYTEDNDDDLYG
UniProt P00811, sequence (whole entry, looked up): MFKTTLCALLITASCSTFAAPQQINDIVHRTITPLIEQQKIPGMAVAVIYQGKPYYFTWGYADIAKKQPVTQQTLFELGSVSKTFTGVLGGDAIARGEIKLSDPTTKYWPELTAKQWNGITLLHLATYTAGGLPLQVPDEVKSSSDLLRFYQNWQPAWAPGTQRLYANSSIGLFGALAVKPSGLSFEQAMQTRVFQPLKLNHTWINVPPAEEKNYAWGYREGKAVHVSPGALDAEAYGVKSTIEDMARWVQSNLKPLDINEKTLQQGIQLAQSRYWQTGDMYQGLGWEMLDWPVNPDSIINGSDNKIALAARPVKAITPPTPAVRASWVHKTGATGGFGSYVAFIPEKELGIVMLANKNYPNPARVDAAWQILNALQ
UniProt O00459, sequence (whole entry, looked up): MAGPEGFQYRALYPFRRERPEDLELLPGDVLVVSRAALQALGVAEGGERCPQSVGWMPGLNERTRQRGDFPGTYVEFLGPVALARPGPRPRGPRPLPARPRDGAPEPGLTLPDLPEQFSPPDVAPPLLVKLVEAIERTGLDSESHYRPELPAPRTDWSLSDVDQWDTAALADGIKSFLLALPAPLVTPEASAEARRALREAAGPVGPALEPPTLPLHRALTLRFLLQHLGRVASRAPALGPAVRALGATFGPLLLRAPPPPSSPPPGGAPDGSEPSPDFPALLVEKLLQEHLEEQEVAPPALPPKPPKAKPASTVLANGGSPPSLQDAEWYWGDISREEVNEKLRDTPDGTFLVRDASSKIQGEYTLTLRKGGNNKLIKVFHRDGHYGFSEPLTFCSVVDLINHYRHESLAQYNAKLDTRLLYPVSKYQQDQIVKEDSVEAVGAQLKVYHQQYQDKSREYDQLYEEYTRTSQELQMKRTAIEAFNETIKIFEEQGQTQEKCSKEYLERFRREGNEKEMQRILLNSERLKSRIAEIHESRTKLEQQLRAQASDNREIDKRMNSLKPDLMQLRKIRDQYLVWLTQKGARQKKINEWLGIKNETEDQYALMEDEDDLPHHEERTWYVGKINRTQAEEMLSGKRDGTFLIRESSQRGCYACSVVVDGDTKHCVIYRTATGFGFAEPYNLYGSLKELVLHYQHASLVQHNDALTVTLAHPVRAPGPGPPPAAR

| SMILES | target or system | assay | test system | conditions | scale | quantity | value |
| --- | --- | --- | --- | --- | --- | --- | --- |
| CCN(CC)C(=O)c1ccc(C(c2cccc(O)c2)N2CC(C)N(Cc3ccccc3)CC2C)cc1 (stereo not shown) | OPRD1 (Homo sapiens, UniProt P41143, D95G) | – | – | – | – | Ki | 0.00092 ± 0.00027 µM |
| CC[C@H](C)[C@H](NC(=O)[C@@H](NC(=O)[C@@H](N)CCC(N)=O)C(C)C)C(=O)N[C@H](C(=O)N[C@H](C(=O)NCC(=O)N[C@H]1CC(=O)NC1=O)[C@@H](C)CC)[C@@H](C)O | Protein cereblon, with DDB1 (CRBN, Homo sapiens, UniProt Q96SW2) | binding | – | – | – | Kd | 0.0539 µM |
| O=C(N[C@@H]1c2ccccc2C[C@H]1N1CCCC1)c1ccc(-c2ccnc3[nH]ccc23)nc1 | PRKX (Homo sapiens, UniProt P51817) | binding, competition with immobilised ligand | – | – | – | Kd | 0.061 µM |
| CC(C)(C)C(=O)OCOP(=O)(OCOC(=O)C(C)(C)C)C1CCCN(O)C1=O (stereo not shown) | U-251 | – | – | – | – | TGI | 5.22 µM |
| CC12CCC(C(=O)O)(OC1=O)C2(C)C (stereo not shown) | Beta-lactamase (ampC, Escherichia coli K-12, UniProt P00811) | – | – | – | – | Kd | 5800 µM |
| COc1ccccc1-c1n[nH]c2nc(NC3CCN(C(=O)Cc4ccc(F)cc4F)CC3)ncc12 | – | bead binding, competition bead pull-down, measured: LINJ.24.1910 | Leishmania donovani axenic amastigote extract | 10 µM | baseline: vehicle | relative abundance | 0.98 |
| CCCC[C@@H]1NC(=O)[C@H](Cc2ccc(O)cc2)NC(=O)[C@@H]2CCCN2C(=O)[C@H](CC(=O)O)NC(=O)[C@H](C)NC(=O)[C@H](Cc2ccccc2)NC(=O)[C@@H]2CSCCC(=O)N3CN(CN(C3)C(=O)CCSC[C@H](NC(C)=O)C(=O)N[C@@H]([C@@H](C)CC)C(=O)N[C@@H](CCC(=O)O)C(=O)N[C@@H](CCC(=O)O)C(=O)NCC(=O)N[C@@H](CCC(N)=O)C(=O)N[C@@H](Cc3ccc(O)cc3)C(=O)N2)C(=O)CCSC[C@@H](C(N)=O)NC1=O | Tumor necrosis factor receptor superfamily member 9 (Homo sapiens, UniProt Q07011) | binding, SPR | – | – | – | Kd | 0.00812 µM |
| CSCC[C@@H](N)C(=O)N[C@H](C)C(=O)N[C@H](C)C(=O)N[C@@H](C(=O)N[C@H](C)C(=O)NCC(=O)N[C@H](CC(C)C)C(=O)N[C@H](Cc1ccc(O)cc1)C(=O)NCC(=O)N[C@H](CC(C)C)C(=O)NCC(=O)N[C@H](CCC(=O)O)C(=O)N[C@H](CC(=O)O)C(=O)N[C@H](CCCNC(=N)N)C(=O)N[C@H](CCC(N)=O)C(=O)N[C@H](Cc1c[nH]cn1)C(=O)N[C@H](CCCNC(=N)N)C(=O)N[C@H](CCCCN)C(=O)N[C@H](CCCCN)C(=O)N[C@H](CCC(N)=O)C(N)=O)C(C)C | Sh, DEL6-46 (Drosophila melanogaster, UniProt P08510) | ion current, blocker, inside-out patch clamp | – | +90 mV | – | Kd | 3.5 µM |
| CC[C@H](C)[C@@H]1NC(=O)[C@@H](C)NC(=O)[C@H](CCC(=O)N[C@@H](CCCCN)C(N)=O)NC(=O)[C@@H](C)NC(=O)[C@@H](C)NC(=O)[C@H](Cc2c[nH]c3ccccc23)NC(=O)[C@H](Cc2ccc(O)cc2)NC(=O)[C@H](CCCNC(=N)N)NC(=O)[C@H](Cc2ccc(F)cc2)NC1=O | EPRS1 (Homo sapiens, UniProt P07814) | binding | – | – | – | Kd | 0.6 µM |
| CC[C@H](C)[C@H](NC(=O)[C@H](CCCCN)NC(=O)[C@H](C)NC(=O)[C@H](CCCNC(=N)N)NC(=O)[C@H](CCCCN)NC(=O)[C@H](CCC(N)=O)NC(=O)[C@H](CCC(N)=O)NC(=O)[C@H](CC(N)=O)NC(=O)[C@@H](NC(=O)[C@H](CS)NC(=O)[C@H](CC(N)=O)NC(=O)[C@@H]1CCCN1C(=O)[C@H](CC(=O)O)NC(=O)[C@H](CC(C)C)NC(=O)[C@H](C)NC(=O)[C@H](C)NC(=O)[C@H](CCC(=O)O)NC(=O)[C@H](Cc1c[nH]c2ccccc12)NC(=O)[C@H](Cc1ccc(O)cc1)NC(=O)[C@H](CCCNC(=N)N)NC(=O)[C@H](CC(N)=O)NC(=O)[C@H](CCCNC(=N)N)NC(=O)[C@H](CCSC)NC(=O)[C@H](CCC(=O)O)NC(=O)[C@H](CCCCN)NC(=O)[C@H](CO)NC(=O)[C@H](Cc1ccccc1)NC(C)=O)[C@@H](C)O)C(=O)N[C@@H](CCCNC(=N)N)C(=O)N[C@@H](CO)C(=O)N[C@H](C(=O)N[C@@H](Cc1ccc(O)cc1)C(=O)N[C@@H](CCC(=O)O)C(=O)N[C@@H](CCC(=O)O)C(=O)NCC(=O)N[C@@H](CCC(=O)O)C(N)=O)[C@@H](C)CC | ERBB2 (Homo sapiens, UniProt P04626) | binding, SPR | – | – | – | Kd | 0.067 µM |
| CC[C@H](C)[C@H](NC(=O)c1ccc2c(c1)C(=O)OC21c2ccc(N(C)C)cc2Oc2cc(N(C)C)ccc21)C(=O)N[C@H](C(=O)N[C@@H](C)C(=O)N[C@@H](CC(C)C)C(=O)N[C@H](C(=O)N[C@@H](CO)C(=O)N[C@@H](CC(N)=O)C(=O)N[C@@H](CCC(N)=O)C(=O)N[C@@H](CCC(=O)O)C(=O)N[C@@H](Cc1ccc(OP(=O)(O)O)cc1)C(=O)N[C@@H](CC(C)C)C(=O)N[C@@H](CC(=O)O)C(=O)N[C@@H](CC(C)C)C(=O)N[C@@H](CO)C(=O)N[C@@H](CCSC)C(=O)N1CCC[C@H]1C(=O)N[C@@H](CC(C)C)C(=O)N[C@@H](CC(=O)O)C(=O)O)[C@@H](C)O)C(C)C | Phosphatidylinositol 3-kinase regulatory subunit beta, SH2 domain (Homo sapiens, UniProt O00459) | binding | – | – | – | Kd | 1.1 µM |
| CC[C@H](C)[C@H](NC(=O)[C@H](CO)NC(=O)[C@H](Cc1ccc(O)cc1)NC(=O)[C@H](Cc1ccc(O)cc1)NC(=O)[C@H](CC(N)=O)NC(=O)CNC(=O)[C@H](CO)NC(=O)[C@H](Cc1ccc(O)cc1)NC(=O)[C@H](CO)NC(=O)[C@H](CO)NC(=O)[C@H](CC(N)=O)NC(=O)COCCOCCNC(=O)CN1CCN(CC(=O)O)CCN(CC(=O)O)CCN(CC(=O)O)CC1)C(=O)N[C@@H](CC(C)C)C(N)=O [copper-64 labelled] | – | dynamic PET | tamoxifen-induced PDAC mouse model, pancreas | 8.5 min, CLDN4-expressing tumours | – | maximum pancreas uptake | 18.1 %IA/cc |
| CCCC[C@H](NC(=O)[C@H](CCCNC(=N)N)NC(=O)[C@H](CCCNC(=N)N)NC(=O)[C@H](CC(C)C)NC(=O)[C@H](CCC(=O)O)NC(=O)[C@H](CCCNC(=N)N)NC(=O)CNC(=O)[C@]1(C)CCCC=CCCC[C@](C)(NC(=O)[C@H](Cc2c[nH]c3ccccc23)NC(=O)COCCOCCNC(=O)CCCC[C@@H]2SC[C@@H]3NC(=O)N[C@@H]32)C(=O)N[C@@H](C)C(=O)N[C@@H](CCC(N)=O)C(=O)N[C@@H](CCCNC(=N)N)C(=O)N1)C(=O)N[C@@H](CO)C(=O)N[C@@H](CC(=O)O)C(=O)N[C@@H](CCC(=O)O)C(=O)N[C@@H](Cc1ccccc1)C(=O)N[C@H](C(=O)N[C@@H](CC(=O)O)C(=O)N[C@@H](CO)C(=O)N[C@@H](Cc1ccccc1)C(=O)N[C@@H](CCCCN)C(N)=O)C(C)C | BCL2 (Homo sapiens, UniProt P10415, G101V) | binding, biolayer interferometry | – | immobilised compound | – | Kd | 0.0201 µM |
| O=C1NC2(CC2)COc2ncc(F)cc2[C@H]2COCCN2c2ccn3ncc1c3n2 | – | – | Sprague-Dawley rat, male, serum | oral, 2.5 mg/kg/day, end of treatment, 4-week subacute toxicity | – | serum hepatic lipase activity | 3.3 ± 0.7 U/L |
| CC(=O)N[C@@H](Cc1ccccc1Cl)C(=O)N1CCC[C@H]1C(=O)N1CCC[C@H]1C(=O)N1CC[C@@H]2C=C[C@H]3CC[C@@H](C(=O)N[C@H](C(=O)N[C@@H](CCC(=O)O)C(=O)N[C@@H](CC(=O)O)C(=O)N[C@@H](CCC(=O)O)C(=O)N[C@@H](CC(C)C)C(N)=O)[C@@H](C)O)N3C(=O)[C@H]21 | Protein enabled homolog (ENAH, UniProt Q8N8S7) | binding, fluorescence | – | – | – | Kd | 0.6 µM |
| O=P(O)(O)Oc1c2c(c(OP(=O)(O)O)c3c1C1CC3c3cc4c(cc31)C1CC4c3ccccc31)C1CC2c2cc3c(cc21)C1CC3c2ccccc21 | VCP (Homo sapiens, UniProt P55072) | binding, ITC | – | pH 7.4 | – | Kd | 21.7 µM |

Excerpt of the above:
| SMILES | target or system | assay | test system | conditions | scale | quantity | value |
| --- | --- | --- | --- | --- | --- | --- | --- |
| CC[C@H](C)[C@@H]1NC(=O)[C@@H](C)NC(=O)[C@H](CCC(=O)N[C@@H](CCCCN)C(N)=O)NC(=O)[C@@H](C)NC(=O)[C@@H](C)NC(=O)[C@H](Cc2c[nH]c3ccccc23)NC(=O)[C@H](Cc2ccc(O)cc2)NC(=O)[C@H](CCCNC(=N)N)NC(=O)[C@H](Cc2ccc(F)cc2)NC1=O | EPRS1 (Homo sapiens, UniProt P07814) | binding | – | – | – | Kd | 0.6 µM |
| COc1ccccc1-c1n[nH]c2nc(NC3CCN(C(=O)Cc4ccc(F)cc4F)CC3)ncc12 | – | bead binding, competition bead pull-down, measured: LINJ.24.1910 | Leishmania donovani axenic amastigote extract | 10 µM | baseline: vehicle | relative abundance | 0.98 |
